Assay results of several laboratories.
Compare with care: the assays were run in different laboratories. ± gives the spread as reported.
CDK2 with cyclin A: Cyclin-dependent kinase 2, with cyclin A (CDK2, Homo sapiens, UniProt P24941)
DRD3: D(3) dopamine receptor (DRD3, Homo sapiens, UniProt P35462)
Chain of UniProt P35462 (whole entry, looked up): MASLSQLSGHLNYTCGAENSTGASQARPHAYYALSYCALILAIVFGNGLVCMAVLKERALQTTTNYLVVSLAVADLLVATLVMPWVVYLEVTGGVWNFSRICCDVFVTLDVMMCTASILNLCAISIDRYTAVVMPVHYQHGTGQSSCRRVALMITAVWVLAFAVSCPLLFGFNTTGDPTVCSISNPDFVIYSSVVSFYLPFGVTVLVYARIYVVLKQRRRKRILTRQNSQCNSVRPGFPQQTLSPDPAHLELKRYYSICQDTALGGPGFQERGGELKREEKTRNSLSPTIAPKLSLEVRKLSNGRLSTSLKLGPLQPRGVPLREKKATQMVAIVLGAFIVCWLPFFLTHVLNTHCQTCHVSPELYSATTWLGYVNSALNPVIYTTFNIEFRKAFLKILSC
ESR1: Estrogen receptor (ESR1, Homo sapiens, UniProt P03372)
Chain of UniProt P03372 (whole entry, looked up): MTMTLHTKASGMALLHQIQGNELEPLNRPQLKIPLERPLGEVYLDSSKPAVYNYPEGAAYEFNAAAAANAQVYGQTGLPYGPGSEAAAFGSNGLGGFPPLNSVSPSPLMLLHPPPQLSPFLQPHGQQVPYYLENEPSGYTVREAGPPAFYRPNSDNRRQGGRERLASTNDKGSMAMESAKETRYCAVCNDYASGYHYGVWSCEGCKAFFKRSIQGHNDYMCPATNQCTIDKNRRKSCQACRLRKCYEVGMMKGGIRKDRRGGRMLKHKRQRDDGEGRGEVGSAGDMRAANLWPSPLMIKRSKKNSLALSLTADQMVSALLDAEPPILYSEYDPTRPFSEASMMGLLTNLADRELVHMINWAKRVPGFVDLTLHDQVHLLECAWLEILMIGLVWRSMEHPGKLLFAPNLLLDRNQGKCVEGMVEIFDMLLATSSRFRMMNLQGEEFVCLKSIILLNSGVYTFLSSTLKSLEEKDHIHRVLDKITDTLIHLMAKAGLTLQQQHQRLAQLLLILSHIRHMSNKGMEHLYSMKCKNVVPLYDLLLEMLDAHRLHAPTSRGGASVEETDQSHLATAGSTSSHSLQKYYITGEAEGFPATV
SLC10A1: Hepatic sodium/bile acid cotransporter (SLC10A1, Homo sapiens, UniProt Q14973)
Chain of UniProt Q14973 (whole entry, looked up): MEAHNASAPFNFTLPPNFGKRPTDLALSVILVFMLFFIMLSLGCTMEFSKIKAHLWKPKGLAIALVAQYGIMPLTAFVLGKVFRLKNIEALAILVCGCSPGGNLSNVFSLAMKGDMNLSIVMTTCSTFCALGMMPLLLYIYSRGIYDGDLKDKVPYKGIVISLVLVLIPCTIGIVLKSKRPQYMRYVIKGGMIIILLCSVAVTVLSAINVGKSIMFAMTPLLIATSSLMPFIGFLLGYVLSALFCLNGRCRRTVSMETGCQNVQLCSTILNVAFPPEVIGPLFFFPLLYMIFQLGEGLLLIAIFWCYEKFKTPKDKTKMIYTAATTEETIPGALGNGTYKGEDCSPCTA
CDK2: Cyclin-dependent kinase 2 (CDK2, Homo sapiens, UniProt P24941)
Chain of UniProt P45985 (whole entry, looked up): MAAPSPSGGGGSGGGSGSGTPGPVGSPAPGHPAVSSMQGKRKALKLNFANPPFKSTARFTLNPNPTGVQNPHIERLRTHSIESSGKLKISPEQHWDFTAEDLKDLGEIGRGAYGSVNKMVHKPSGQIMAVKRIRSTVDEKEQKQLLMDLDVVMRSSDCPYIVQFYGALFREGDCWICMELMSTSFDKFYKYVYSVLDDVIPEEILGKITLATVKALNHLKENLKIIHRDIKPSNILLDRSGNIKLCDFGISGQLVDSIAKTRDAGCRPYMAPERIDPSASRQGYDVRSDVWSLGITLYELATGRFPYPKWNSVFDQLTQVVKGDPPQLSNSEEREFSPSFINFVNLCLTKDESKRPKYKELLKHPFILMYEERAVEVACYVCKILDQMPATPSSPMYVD
Chain of UniProt P22413 (whole entry, looked up): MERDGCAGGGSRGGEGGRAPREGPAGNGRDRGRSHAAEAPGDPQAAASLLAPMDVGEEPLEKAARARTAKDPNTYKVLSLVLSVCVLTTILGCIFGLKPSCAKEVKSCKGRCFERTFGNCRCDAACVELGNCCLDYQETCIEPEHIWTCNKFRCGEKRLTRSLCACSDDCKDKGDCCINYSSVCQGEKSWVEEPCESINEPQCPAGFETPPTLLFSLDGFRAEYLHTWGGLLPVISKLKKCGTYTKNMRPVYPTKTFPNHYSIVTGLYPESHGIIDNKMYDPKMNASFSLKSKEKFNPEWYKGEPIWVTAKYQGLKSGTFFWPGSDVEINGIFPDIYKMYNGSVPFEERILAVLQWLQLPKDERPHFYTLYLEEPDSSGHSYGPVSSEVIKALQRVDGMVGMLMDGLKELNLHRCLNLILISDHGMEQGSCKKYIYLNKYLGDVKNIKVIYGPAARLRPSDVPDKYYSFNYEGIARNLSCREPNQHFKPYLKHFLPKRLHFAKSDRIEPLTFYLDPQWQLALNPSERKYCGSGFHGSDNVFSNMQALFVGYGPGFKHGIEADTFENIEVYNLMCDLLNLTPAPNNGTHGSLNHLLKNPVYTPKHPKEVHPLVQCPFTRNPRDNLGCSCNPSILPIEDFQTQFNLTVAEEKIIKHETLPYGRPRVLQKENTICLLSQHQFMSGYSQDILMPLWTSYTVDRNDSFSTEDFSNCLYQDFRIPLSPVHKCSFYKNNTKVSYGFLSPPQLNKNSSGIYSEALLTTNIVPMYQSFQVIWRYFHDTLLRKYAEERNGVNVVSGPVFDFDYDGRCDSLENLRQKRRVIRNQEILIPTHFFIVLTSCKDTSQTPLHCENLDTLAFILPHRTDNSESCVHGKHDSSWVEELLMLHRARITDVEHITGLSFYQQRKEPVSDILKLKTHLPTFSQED
Chain of UniProt P51449 (whole entry, looked up): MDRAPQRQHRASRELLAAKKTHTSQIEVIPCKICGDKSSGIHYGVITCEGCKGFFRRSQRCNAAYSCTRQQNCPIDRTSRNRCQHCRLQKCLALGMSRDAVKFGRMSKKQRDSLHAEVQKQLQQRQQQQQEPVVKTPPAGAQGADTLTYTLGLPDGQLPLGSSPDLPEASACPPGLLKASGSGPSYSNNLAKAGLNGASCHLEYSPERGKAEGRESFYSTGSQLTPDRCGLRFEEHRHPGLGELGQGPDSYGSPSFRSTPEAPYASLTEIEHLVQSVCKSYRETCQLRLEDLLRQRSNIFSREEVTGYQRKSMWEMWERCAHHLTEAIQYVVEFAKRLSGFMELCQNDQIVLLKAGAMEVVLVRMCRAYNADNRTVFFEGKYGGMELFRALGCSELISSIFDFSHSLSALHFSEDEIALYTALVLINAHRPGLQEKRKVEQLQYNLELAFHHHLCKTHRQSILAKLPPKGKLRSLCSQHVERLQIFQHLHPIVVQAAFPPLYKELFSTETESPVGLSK

Compound	tested on	assay	test system	conditions	how to read	endpoint	result
COc1ccc2c(C)nc(Nc3nc(C)cc(O)n3)nc2c1	CDK2 with cyclin A	–	–	–	–	Kd	> 100 µM
Cc1cc(Nc2ccc(S(F)(F)(F)(F)F)cc2)n2nc(C(C)(F)F)nc2n1	Plasmodium falciparum	12-lead ECG	malaria patients	oral, 400 mg, increase above 60 ms	–	patients with QTcB increase	0%
COc1ccc(NC(=O)CSc2nnnn2C)cc1	CDK2 with cyclin A	–	–	–	–	Kd	> 100 µM
CC[C@@H]1[C@H](F)C(=O)N[C@@H]1COc1nccc2cc(C(N)=O)c(OC)cc12	MAP2K4 (Homo sapiens, UniProt P45985)	ATP probe binding, KiNativ profiling, refers to: Lys1 probe site	THP-1 cell lysate	–	–	IC50	3.9 µM
Cc1cccc(NS(=O)(=O)c2cc(C(=O)Nc3ccccc3C(=O)N3CCOCC3)ccc2Cl)c1	CDK2 with cyclin A	–	–	–	–	Kd	> 100 µM
Cc1cnc(NS(=O)(=O)c2c(C)[nH]c(C)c2C(=O)N2CCC(F)(F)C2)cc1Cl	DRD3	β-arrestin recruitment, antagonist, PathHunter	–	with: dopamine EC80	–	IC50	> 100 µM
Cn1cc(-c2ccc(-c3cncc(Cl)c3N3CCC4(CCNC4=O)CC3)cc2)cn1	COLO 205	gene expression, microarray, refers to: CD55 mRNA	–	concentration not given, 2 h	reference: untreated cells	log2 fold change	2.23
Oc1ccc2c(c1)OC[C@]1(O)Cc3cc(O)c(O)cc3[C@H]21	ESR1	array formation, agonist	ERα-GFP PRL-HeLa	1 h	–	EC50	5.89 µM
NC(=O)N1c2ccccc2C=Cc2ccccc21	SLC10A1	taurocholate uptake, inhibitor	NTCP-expressing HEK293	with: 10 µM taurocholate	–	Ki	914 ± 726 µM
CC(C)C[C@H](NC(=O)C[C@H](O)[C@H](CC(C)C)NC(=O)[C@H](Cc1c[nH]cn1)NC(=O)CNC(=O)[C@@H](NC(=O)[C@H](C)NC(=O)[C@H](Cc1c[nH]c2ccccc12)NC(=O)[C@H](CCC(N)=O)NC(=O)[C@@H](Cc1ccccc1)NC(=O)COCCOCCNC(=O)CCC(C(=O)O)N1CCN(CC(=O)O)CCN(CC(=O)O)CCN(CC(=O)O)CC1)C(C)C)C(N)=O (stereo partly drawn) [lutetium-177 labelled]	–	–	BALB/c nu/nu mice, pancreas	intravenous, 250 pmol, 1 h, with: PA 300 µg	–	tissue uptake	5 ± 1 %ID/g
Cc1ccc(S(=O)(=O)Nc2c(C)[nH]c(C)c2C(=O)N2CCC(F)(F)C2)cc1	DRD3	Go activation, antagonist, BRET	–	with: dopamine	–	IC50	> 100 µM
COCCc1ccc(OCC(O)CNC(C)C)cc1 (stereo not drawn)	SLC10A1	taurocholate uptake, inhibitor	NTCP-expressing HEK293	with: 10 µM taurocholate	–	Ki	340 ± 52 µM
O=c1cc(-c2ccccc2)oc2ccc(O)cc12	ESR1	array formation, agonist	ERα-GFP PRL-HeLa	1 h	–	EC50	1.31 µM
CCc1cc(C(=O)NC)c2nccc(N3CCc4c(cc(Cn5ccnc5)cc4-c4cn(C)nc4C(F)(F)F)C3=O)c2c1	–	–	Sprague Dawley rats	oral, 100 mg/kg twice daily, 7 days	–	blood TP	59.4 ± 3.8 g/L
CCc1nn(CCCN2CCN(c3cccc(Cl)c3)CC2)c(=O)n1CCOc1ccccc1	SLC10A1	taurocholate uptake, inhibitor	NTCP-expressing HEK293	with: 10 µM taurocholate	–	Ki	100 ± 8 µM
Cc1nc(N)nc2c1C(=O)N[C@@H](c1ccc(F)cc1-c1cccc(OCCF)n1)C2	–	binding, radioligand competition	mouse brain homogenate	60 min, 37 °C, with: [3H]HSP990 0.5 nM	–	IC50	0.385 µM
C[C@@H](CC(=O)N1CCCC1)NC(=O)CCS(=O)(=O)Nc1ccc(C(F)(F)F)c(Cl)c1	DRD3	Go activation, antagonist, BRET	–	with: dopamine	–	IC50	> 100 µM
CNCc1ccc(-c2[nH]c3cc(F)cc4c3c2CCNC4=O)cc1	–	–	patients	oral, 480 mg twice daily, all grades	–	cough incidence	33.3%
COc1cccc(OC)c1NS(=O)(=O)c1ccc(N/C=C2\C(=O)Nc3ccc4ncsc4c32)cc1	CDK2	binding, thermal shift	–	–	–	Kd	3.6 µM
COc1ncc(-c2nc3c(n2C(C)C)[C@H](c2ccc(Cl)cc2)N(c2cc(Cl)cn(C)c2=O)C3=O)c(OC)n1	–	LC-MS/MS	human, plasma	oral, 20 mg, cycle 1 day 1, low-dose arm	–	AUC(0-last)	2290 ng·h/mL
Cc1ccc(C)c(OCCCC(C)(C)C(=O)O)c1	SLC10A1	taurocholate uptake, inhibitor	NTCP-expressing HEK293	with: 10 µM taurocholate	–	Ki	30.4 ± 2.9 µM
Cc1cccc(S(=O)(=O)N2CCc3ccc(OCc4c(F)cccc4Cl)cc32)c1	RORC (Homo sapiens, UniProt P51449)	reporter gene, agonist, GAL4 luciferase reporter	–	with: ursolic acid 2 µM	–	EC50	0.5 ± 0.11 µM
CC(=O)N=S(=O)(O)c1ccc(N/C=C2\C(=O)Nc3ccc4ncsc4c32)cc1	CDK2	average of ITC, Octet and Thermofluor	–	untagged protein	–	Kd	1.43 µM
COc1ccc(-c2coc3cc(O)ccc3c2=O)cc1O	ESR1	array formation, agonist	ERα-GFP PRL-HeLa	1 h	–	EC50	0.946 µM
CCCCN(CCCC)C(=O)c1c(C)[nH]c(C)c1S(=O)(=O)Nc1ccc(C(F)(F)F)c(Cl)c1	DRD3	Go activation, antagonist, BRET	–	with: dopamine	–	IC50	> 100 µM
Nc1nc2c(ncn2[C@@H]2O[C@@H]3COP(=O)(O)O[C@H]4[C@@H](O)[C@H](n5cnc6c(N)ncnc65)O[C@@H]4COP(=O)(O)O[C@H]2[C@@H]3O)c(=O)[nH]1	ENPP1 (Homo sapiens, UniProt P22413)	substrate	–	100 µM, 3 h	–	remaining compound	80%
CC(C)[C@H](NC(=O)[C@H](Cc1ccc(O)cc1)NC(=O)[C@H](Cc1ccc(O)cc1)NC(=O)[C@@H]1CCCN1C(=O)[C@H](CCC(=O)O)NC(=O)[C@H](CCC(=O)O)NC(=O)[C@H](Cc1c[nH]c2ccccc12)NC(=O)[C@@H]1CCCN1C(=O)[C@@H](NC(=O)[C@H](CCC(N)=O)NC(=O)c1ccc2c(c1)C(=O)OC21c2ccc(O)cc2Oc2cc(O)ccc21)C(C)C)C(=O)N[C@H](C(=O)N[C@@H](CCCCN)C(=O)N[C@@H](CCCCN)C(=O)N[C@@H](CO)C(=O)N[C@@H](CO)C(=O)NCC(=O)NCC(N)=O)C(C)C	–	–	human, plasma	intravenous infusion, 500 mg, 1 h	–	plasma concentration	7060 ng/mL
Cc1[nH]c(C)c(S(=O)(=O)N2CCC(F)(F)C2)c1S(=O)(=O)Nc1ccc(C(F)(F)F)c(Cl)c1	DRD3	Go activation, antagonist, BRET	–	with: dopamine	–	IC50	> 100 µM
Cc1ccc(NS(=O)(=O)c2cc(C(=O)Nc3ccccc3C(=O)N3CCOCC3)ccc2Cl)c(C)c1	CDK2 with cyclin A	–	–	–	–	Kd	> 100 µM
CC(C)C[C@H](NC(=O)C[C@H](O)[C@H](CC(C)C)NC(=O)[C@H](Cc1c[nH]cn1)NC(=O)CNC(=O)[C@@H](NC(=O)[C@H](C)NC(=O)[C@H](Cc1c[nH]c2ccccc12)NC(=O)[C@H](CCC(N)=O)NC(=O)[C@@H](Cc1ccccc1)NC(=O)COCCOCCNC(=O)CCC(C(=O)O)N1CCN(CC(=O)O)CCN(CC(=O)O)CC1)C(C)C)C(N)=O (stereo partly drawn) [lutetium-177 labelled]	–	–	female BALB/c nu/nu mice, kidneys	intravenous, 50 pmol, 24 h	–	tissue uptake	2.1 ± 0.5 %ID/g

A few entries again:
Compound	tested on	assay	test system	conditions	how to read	endpoint	result
Cc1cnc(NS(=O)(=O)c2c(C)[nH]c(C)c2C(=O)N2CCC(F)(F)C2)cc1Cl	DRD3	β-arrestin recruitment, antagonist, PathHunter	–	with: dopamine EC80	–	IC50	> 100 µM
Cn1cc(-c2ccc(-c3cncc(Cl)c3N3CCC4(CCNC4=O)CC3)cc2)cn1	COLO 205	gene expression, microarray, refers to: CD55 mRNA	–	concentration not given, 2 h	reference: untreated cells	log2 fold change	2.23
Oc1ccc2c(c1)OC[C@]1(O)Cc3cc(O)c(O)cc3[C@H]21	ESR1	array formation, agonist	ERα-GFP PRL-HeLa	1 h	–	EC50	5.89 µM
NC(=O)N1c2ccccc2C=Cc2ccccc21	SLC10A1	taurocholate uptake, inhibitor	NTCP-expressing HEK293	with: 10 µM taurocholate	–	Ki	914 ± 726 µM
CC(C)C[C@H](NC(=O)C[C@H](O)[C@H](CC(C)C)NC(=O)[C@H](Cc1c[nH]cn1)NC(=O)CNC(=O)[C@@H](NC(=O)[C@H](C)NC(=O)[C@H](Cc1c[nH]c2ccccc12)NC(=O)[C@H](CCC(N)=O)NC(=O)[C@@H](Cc1ccccc1)NC(=O)COCCOCCNC(=O)CCC(C(=O)O)N1CCN(CC(=O)O)CCN(CC(=O)O)CCN(CC(=O)O)CC1)C(C)C)C(N)=O (stereo partly drawn) [lutetium-177 labelled]	–	–	BALB/c nu/nu mice, pancreas	intravenous, 250 pmol, 1 h, with: PA 300 µg	–	tissue uptake	5 ± 1 %ID/g
